Published values of several laboratories.
Each numbered part is a random draw from the data of one study; scales do not carry over between parts.
UniProt P52564, sequence (whole entry, looked up): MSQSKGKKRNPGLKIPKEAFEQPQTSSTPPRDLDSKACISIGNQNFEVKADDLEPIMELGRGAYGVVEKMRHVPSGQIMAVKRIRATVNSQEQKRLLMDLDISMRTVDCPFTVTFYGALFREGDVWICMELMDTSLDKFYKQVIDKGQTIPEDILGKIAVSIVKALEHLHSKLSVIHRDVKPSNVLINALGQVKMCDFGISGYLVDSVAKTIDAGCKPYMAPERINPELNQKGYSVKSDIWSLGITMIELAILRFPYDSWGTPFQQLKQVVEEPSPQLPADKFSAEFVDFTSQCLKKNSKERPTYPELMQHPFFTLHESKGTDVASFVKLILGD
UniProt Q9HC98, sequence (whole entry, looked up): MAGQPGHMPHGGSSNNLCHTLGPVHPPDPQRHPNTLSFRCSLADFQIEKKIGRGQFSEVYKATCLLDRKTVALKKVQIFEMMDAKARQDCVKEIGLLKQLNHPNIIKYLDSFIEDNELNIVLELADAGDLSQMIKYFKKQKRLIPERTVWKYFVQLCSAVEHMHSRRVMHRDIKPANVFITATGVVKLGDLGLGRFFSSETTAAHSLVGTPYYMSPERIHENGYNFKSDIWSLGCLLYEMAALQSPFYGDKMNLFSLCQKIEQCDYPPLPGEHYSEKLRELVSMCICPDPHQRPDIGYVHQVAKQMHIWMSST
UniProt Q9HBY8, sequence (whole entry, looked up): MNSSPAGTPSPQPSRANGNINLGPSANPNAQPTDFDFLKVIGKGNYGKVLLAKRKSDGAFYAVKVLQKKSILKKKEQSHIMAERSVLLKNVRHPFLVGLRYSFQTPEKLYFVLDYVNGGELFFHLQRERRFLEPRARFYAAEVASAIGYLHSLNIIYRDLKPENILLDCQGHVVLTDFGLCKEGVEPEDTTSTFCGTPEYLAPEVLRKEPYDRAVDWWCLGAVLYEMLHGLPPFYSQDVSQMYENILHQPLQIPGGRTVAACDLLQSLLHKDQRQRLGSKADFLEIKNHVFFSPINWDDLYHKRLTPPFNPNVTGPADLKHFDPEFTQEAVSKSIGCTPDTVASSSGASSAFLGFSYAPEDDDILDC
UniProt Q8NEB9, sequence (whole entry, looked up): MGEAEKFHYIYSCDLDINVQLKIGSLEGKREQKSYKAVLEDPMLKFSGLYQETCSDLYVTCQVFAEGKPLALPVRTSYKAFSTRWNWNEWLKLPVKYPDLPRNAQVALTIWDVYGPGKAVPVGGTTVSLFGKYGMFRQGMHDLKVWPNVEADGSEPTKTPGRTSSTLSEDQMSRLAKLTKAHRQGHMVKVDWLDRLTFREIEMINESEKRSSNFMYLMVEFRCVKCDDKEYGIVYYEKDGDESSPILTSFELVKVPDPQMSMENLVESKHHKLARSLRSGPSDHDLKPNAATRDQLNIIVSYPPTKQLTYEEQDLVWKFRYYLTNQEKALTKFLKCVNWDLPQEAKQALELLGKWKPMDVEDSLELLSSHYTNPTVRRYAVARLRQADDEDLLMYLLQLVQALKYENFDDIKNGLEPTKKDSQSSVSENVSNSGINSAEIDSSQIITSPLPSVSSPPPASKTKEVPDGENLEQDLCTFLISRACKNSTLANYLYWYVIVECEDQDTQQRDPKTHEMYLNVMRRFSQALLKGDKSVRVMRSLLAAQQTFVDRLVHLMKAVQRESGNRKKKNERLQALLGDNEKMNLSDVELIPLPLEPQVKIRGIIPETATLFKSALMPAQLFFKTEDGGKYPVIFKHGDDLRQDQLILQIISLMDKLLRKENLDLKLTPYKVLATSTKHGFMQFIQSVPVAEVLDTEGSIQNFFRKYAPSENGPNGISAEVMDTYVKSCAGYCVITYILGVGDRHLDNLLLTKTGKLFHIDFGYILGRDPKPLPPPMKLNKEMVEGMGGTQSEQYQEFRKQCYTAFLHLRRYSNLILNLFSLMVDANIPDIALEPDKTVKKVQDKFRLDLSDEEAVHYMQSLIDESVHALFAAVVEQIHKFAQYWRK
UniProt P57078, sequence (whole entry, looked up): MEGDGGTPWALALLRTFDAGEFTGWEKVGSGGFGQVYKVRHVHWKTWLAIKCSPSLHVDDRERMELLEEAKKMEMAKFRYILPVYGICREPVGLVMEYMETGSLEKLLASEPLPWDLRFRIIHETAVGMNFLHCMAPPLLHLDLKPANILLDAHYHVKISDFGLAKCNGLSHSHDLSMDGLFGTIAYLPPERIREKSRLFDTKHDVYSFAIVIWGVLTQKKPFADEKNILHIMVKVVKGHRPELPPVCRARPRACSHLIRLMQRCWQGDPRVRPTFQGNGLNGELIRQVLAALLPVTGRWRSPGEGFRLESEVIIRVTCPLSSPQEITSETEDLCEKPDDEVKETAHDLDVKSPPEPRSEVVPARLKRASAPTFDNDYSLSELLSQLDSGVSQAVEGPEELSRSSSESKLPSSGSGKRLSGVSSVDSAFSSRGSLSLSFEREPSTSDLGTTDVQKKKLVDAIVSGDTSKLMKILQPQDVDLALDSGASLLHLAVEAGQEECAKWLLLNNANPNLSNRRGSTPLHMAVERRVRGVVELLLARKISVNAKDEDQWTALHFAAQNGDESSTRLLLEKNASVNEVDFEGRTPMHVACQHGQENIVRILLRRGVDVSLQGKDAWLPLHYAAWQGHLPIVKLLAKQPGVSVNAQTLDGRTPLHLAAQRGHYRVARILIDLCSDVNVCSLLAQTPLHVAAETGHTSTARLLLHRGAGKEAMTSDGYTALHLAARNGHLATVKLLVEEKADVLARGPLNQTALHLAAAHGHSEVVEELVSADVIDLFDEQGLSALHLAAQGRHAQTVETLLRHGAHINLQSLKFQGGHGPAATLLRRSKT
UniProt O14976, sequence (whole entry, looked up): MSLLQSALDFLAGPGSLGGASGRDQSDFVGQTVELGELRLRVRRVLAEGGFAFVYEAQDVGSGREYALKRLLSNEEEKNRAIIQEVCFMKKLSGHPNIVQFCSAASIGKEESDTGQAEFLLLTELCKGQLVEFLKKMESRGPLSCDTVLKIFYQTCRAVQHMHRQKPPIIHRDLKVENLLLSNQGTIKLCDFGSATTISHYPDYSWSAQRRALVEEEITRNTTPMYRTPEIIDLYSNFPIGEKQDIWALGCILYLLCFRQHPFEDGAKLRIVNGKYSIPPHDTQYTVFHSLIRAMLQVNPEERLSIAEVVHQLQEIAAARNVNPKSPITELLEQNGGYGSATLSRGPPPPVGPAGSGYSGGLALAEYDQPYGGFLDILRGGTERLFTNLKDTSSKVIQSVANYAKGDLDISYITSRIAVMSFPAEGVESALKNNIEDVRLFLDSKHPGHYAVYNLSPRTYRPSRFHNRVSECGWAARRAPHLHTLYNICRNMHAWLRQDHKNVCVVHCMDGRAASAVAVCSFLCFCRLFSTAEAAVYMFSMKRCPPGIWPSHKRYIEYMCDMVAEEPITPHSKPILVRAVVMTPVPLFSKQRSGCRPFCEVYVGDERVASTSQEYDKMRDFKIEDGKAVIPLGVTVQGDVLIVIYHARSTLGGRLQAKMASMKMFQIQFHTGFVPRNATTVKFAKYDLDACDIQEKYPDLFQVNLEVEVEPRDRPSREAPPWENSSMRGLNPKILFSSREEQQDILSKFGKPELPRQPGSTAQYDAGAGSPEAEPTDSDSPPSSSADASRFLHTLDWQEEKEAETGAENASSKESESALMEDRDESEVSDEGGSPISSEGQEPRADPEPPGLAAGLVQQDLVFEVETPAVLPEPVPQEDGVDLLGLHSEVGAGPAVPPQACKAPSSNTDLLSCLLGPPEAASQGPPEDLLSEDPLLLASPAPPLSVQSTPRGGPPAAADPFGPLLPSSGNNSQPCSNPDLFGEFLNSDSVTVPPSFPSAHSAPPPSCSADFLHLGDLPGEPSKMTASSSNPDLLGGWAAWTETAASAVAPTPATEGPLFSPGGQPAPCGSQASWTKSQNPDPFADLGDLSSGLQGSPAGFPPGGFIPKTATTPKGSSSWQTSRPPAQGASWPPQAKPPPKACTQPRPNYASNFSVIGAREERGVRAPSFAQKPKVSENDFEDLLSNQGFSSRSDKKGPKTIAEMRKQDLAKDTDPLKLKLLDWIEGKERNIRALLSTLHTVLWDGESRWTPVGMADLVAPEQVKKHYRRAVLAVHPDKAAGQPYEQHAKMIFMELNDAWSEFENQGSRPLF
UniProt P42680, sequence (whole entry, looked up): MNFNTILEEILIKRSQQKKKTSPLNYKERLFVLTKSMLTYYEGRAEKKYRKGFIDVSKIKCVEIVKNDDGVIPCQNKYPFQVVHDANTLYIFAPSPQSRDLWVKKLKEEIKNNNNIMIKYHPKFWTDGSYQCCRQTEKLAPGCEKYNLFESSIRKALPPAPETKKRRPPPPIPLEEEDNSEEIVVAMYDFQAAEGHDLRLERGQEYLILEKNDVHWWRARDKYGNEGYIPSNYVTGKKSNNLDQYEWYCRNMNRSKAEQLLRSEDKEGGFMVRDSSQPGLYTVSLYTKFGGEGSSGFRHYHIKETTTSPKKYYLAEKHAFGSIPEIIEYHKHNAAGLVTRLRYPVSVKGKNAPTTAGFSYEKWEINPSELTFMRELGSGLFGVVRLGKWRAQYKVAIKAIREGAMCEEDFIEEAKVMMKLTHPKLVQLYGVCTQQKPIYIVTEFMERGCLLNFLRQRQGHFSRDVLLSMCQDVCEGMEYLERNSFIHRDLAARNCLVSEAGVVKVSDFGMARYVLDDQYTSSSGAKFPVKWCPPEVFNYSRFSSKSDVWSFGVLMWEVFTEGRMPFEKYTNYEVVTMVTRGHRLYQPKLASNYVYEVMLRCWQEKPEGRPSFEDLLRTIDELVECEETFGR

Study 1 — cell line: A-375; tested at: 100 µM; time: 18 h
`CN1CCC(OC(c2ccccc2)c2ccccc2)CC1` has a viability of 100%.
`C[N+]1(CCCCC[N+]2(C)CCCC2)CCCC1` gave a viability of 91.1%.
The viability of `CCCCC(CC)CN1CN(CC(CC)CCCC)CC(C)(N)C1` (centres unmarked) is reported as 58.9%.
For `CC(C(=O)O)c1ccc(CC2CCCC2=O)cc1` (centres unmarked), the viability was 99.1%.

Study 2 — technique: RNA Bind-n-Seq; molecule type: RNA; matrix: in vitro; tested at: 100 nM; reference: input RNA pool; direction: higher = stronger binding
Target: RING finger protein unkempt homolog, zinc fingers 1-6, SBP tag (UNK, Homo sapiens, UniProt Q9C0B0, residues 30-357)
UniProt Q9C0B0, sequence (30-357, looked up): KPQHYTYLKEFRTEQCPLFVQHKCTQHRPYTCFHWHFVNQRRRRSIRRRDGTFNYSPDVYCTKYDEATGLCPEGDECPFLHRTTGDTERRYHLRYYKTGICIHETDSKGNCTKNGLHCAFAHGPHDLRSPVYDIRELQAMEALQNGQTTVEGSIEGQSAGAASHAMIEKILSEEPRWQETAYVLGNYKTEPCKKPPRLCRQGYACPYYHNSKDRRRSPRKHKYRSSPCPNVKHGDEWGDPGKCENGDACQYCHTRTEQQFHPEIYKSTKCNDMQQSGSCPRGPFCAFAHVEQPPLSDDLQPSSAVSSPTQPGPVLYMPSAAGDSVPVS
Notes: RNA with constant flanks, vertebrate orthologous sites, ends assumed
Constant ends, left off below: GGGAGUUCUACAGUCCGACGAUC … CAACAGAGGAUUGAGCAUCA
The bound/input enrichment of `AAAAUUCAAUAGAAUUACACUAAUACUGACGUUCCAGUUGAAAAGAUAUCCAAGUGUGUGUUGGUAGUUACUAAAAGAAUUAUAGCUUGUAUUGCCUUGUAUUUAUAUCCCCAUGUUCAG` is reported as 1.08 ratio.
With `GAAGAUGGUGGUUGUACAUUAUUCAUUUAGAAAAUAUAAAAAUUCAUUUUGUUUUGAAGCUAGUUAUUAAACUGGAAUAGCAGUUAUAUCCCUGAGAAUGGGGCCCUUCUCUUGACAUUC` the bound/input enrichment was 4.16 ratio.
`UGCCCGUUUACCCCUAAAAUAGAACUUUUUUUAGAAUUAUAUUACCACUUCUAAAAACCUUAGCAAUAUUAGAAUAACACAUCAAUGAAAUAAAUUUUCCUCAUUGUUUUUGCAAACCAA` gave a bound/input enrichment of 4.82 ratio.
`ACCAAGGGACACCCAGCAGGGCGAGGAGCCAGCCCAGCCAGCAGAGGUGGGGCGGGAUCGCUGCCAUCCGGGCUGCACUCACUGCUCUCUGCACCCCUCUGGUGCAAAACCAGCUGCCUU` gave a bound/input enrichment of 0.509 ratio.
The bound/input enrichment of `UUCCAUCUUGAGUUGGCCUCAUAUCUGUGGAAGAUGUAACAUUUUGCAACAAUUGUAUUAUAUCUAGUUAAGCUGAGUUUCAUAUUUUUUUAUUAGCCUGUAAAUAAAGAUGGGGUCUUA` is reported as 1 ratio.
The bound/input enrichment of `GGGAGGCCGGUGGGGGAAUCCCCUGCCUUGGCCUUGCAUCCCCUUCCUGCCACGUGCCCCUAGUUAUUUUUUUUUUUUUACCACCAUGUGAUUAAGGUCGGCGCUGCCUCCCCCGACCCA` is reported as 6.24 ratio.
`AUGUCCUUGGUUACUGUGAUAUUUAAAAUAUCCACAGUGCUCACUUUUUCCAAAUGAUUCUAGUAAUUGCCUAGGAAUAUCUUCCUCUUACCUAUUAUUUAUCAAUUUUCCCAGUAUUUU` has a bound/input enrichment of 0.945 ratio.
For `UCCCCUGGGCCGGGACAGAUUUUUUUUUUUAAUGUCUUGAAACUUAAAACUCUGUGCUUGUAGGAGACUGUAACCUUUUUGUCUUUUUUUUUUUAAAAAAAACAAUCUCCACCUCCAGUG`, the bound/input enrichment was 0.83 ratio.

Study 3 — effect on: cell-free assay; technique: competition with immobilised ligand; tested at: 1 µM
SMILES: COc1cccc(CNC(=O)c2nc3scc(COCc4ccc(C(=O)O)cc4)c3c(=O)[nH]2)c1
It gave 100% for remaining binding (STK32A (Homo sapiens, UniProt Q8WU08)).
The remaining binding was 84.9% (SGK2 (Homo sapiens, UniProt Q9HBY8)).
For NEK4 (Homo sapiens, UniProt P51957): remaining binding read 83.8%.
The remaining binding was 54.5% (DSTYK (Homo sapiens, UniProt Q6XUX3)).
The remaining binding was 100% (MAP2K6 (Homo sapiens, UniProt P52564)).
The remaining binding was 58.6% (EGFR (Homo sapiens, UniProt P00533, L858R/T790M)).
GAK (Homo sapiens, UniProt O14976) — remaining binding: 99.6%.
The remaining binding was 67.1% (RIPK4 (Homo sapiens, UniProt P57078)).
For TEC (Homo sapiens, UniProt P42680): remaining binding read 86%.
The remaining binding was 58.6% (PIK3C3 (Homo sapiens, UniProt Q8NEB9)).
It gave 95.7% for remaining binding (EPHB2 (Homo sapiens, UniProt P29323)).
For NEK6 (Homo sapiens, UniProt Q9HC98): remaining binding read 71%.
The remaining binding was 97.5% (IRAK3 (Homo sapiens, UniProt Q9Y616)).

Study 4 — species: mouse; matrix: microsomes or S9; tested at: 2 µM; time: 0.5 h
With `COc1ccc(CN(C(=O)Cn2nnc3ccccc32)C(C(=O)NCCC(C)C)c2ccccc2)cc1` (centres unmarked) the remaining compound was 62.1%.
The remaining compound of `COc1ccc(Cl)cc1NC(=O)c1cc2c(=O)oc3ccccc3c2n1C` is reported as 36.8%.
For `O=S(=O)(c1ccc(F)cc1Cl)N1CC[C@H]2[C@H](C1)OCc1cnnn12`, the remaining compound was 55.7%.
The remaining compound of `CN1CCC(NS(=O)(=O)c2cc(Cl)ccc2Cl)CC1` is reported as 98.8%.

Some of these lines once more (study 3):
For NEK6 (Homo sapiens, UniProt Q9HC98): remaining binding read 71%.
It gave 100% for remaining binding (STK32A (Homo sapiens, UniProt Q8WU08)).
